Measurements from different studies.
Protocols differ between the studies behind these lines. “And” joins repeats or separate records; there may be more than shown. Numbers after ± are the reported error.

`CC#Cc1cncc(-c2ccc3c(c2)[C@@]2(N=C(C)C(N)=N2)[C@]2(CC[C@H](OC)CC2)C3)c1` gave a reduction of over 50% (refers to: Aβ40; beagle dogs, plasma; oral, 24 µmol/kg daily, 2 weeks, 2 h post-dose; relative to: predose).
For `CC(C)C[C@H](NC(=O)[C@@H](Cc1c[nH]c2ccccc12)NC(=O)[C@H](Cc1ccc(O)cc1)NC(=O)[C@H](CO)NC(=O)[C@H](Cc1c[nH]c2ccccc12)NC(=O)[C@H](Cc1c[nH]cn1)NC(=O)[C@@H]1CCC(=O)N1)C(=O)N[C@@H](CCCNC(=N)N)C(=O)N1CCC[C@H]1C(=O)NCC(N)=O`, “stable pubic hair stage” read 86.4% (Tanner staging; Chinese overall, central precocious puberty; intramuscular, 22.5 mg day 1, month 6, month 12; relative to: baseline).
`COc1ccc(C2=N[C@@H](c3ccc(Cl)cc3)[C@@H](c3ccc(Cl)cc3)N2C(=O)N2CCNC(=O)C2)c(OC(C)C)c1` — result for “centrally nucleated fibres”: 85% and 79% and 90% and 87% and 92% (histology; Dmd C3333Y mice, gastrocnemius; dose not given).
Under “inhibition of platelet aggregation”, `NCC(=O)Nc1cncc(-c2nn3c(=O)cc(N4CCNCC4)nc3s2)c1` is recorded as 52.5% (ADP-induced platelet aggregation, light transmission aggregometry; human stable CAD patients on aspirin, platelets ex vivo; 0.075 mg/kg, 60 min post dose, with: 20 µM ADP; relative to: placebo difference).
`N#Cc1ccn2c(-c3ccncc3)c(-c3ccc(F)cc3)nc2c1`: “log2 fold change” -0.0969 (kinase binding, competitor, MIB/MS competition, refers to: HRR25; Candida albicans cell lysate; 100 nM; relative to: DMSO).
With `Cc1cc(F)cc2c(CCC(=O)N[C@@H]3C(=O)NC[C@H]3O)c(-c3ccc(F)cc3)[nH]c12` the UACR was 377 µg/mg (mice, APOL1 G2, single copy; oral, 30 mg/kg twice daily, day 13, dosing from day 6, with: IFNγ plasmid injection).
For `Cn1cc(Nc2nccc(-c3ccc4c(c3)CN(C3COC3)CC[C@H]4NC(=O)c3cn(C(C)(C)C)nn3)n2)cn1`, “pathway activation z-score” read 2.08 (refers to: B Cell Receptor Signaling; splenic B cells, mouse; in vivo, 30 mg/kg, IgD-activated B cells; relative to: vehicle, positive = activation).
Under “log2 fold change”, `Cc1n[nH]c2ccc(-c3cc(OC[C@@H](N)Cc4ccccc4)cnc3-c3ccoc3)cc12` is recorded as -0.731 (kinase binding, competitor, MIB/MS competition, refers to: NIK1; Candida albicans cell lysate; 100 nM; relative to: DMSO).
For `Cc1ccc(NC(=O)c2ccnc(C(F)(F)F)c2)cc1-c1cc(OCCO)nc(N2CCOCC2)c1`, the complete response was 0% (MAPK-altered advanced solid tumour patients; dose not given, single-agent dose escalation).
`CCCN(O)N=Nc1ccc(S(=O)(=O)Nc2onc(C)c2C)cc1`: “paw edema volume” 5.15 ± 0.41 a.u. (carrageenan-induced paw edema; Wistar rat; oral, 100 mg/kg, 3 h after carrageenan, with: carrageenan 1% subplantar; higher = more edema).
With `Cc1nn(-c2nc3c(F)cc(F)cc3s2)c(O)c1C(c1ccc(C(F)(F)F)cc1)c1c(C)nn(-c2nc3c(F)cc(F)cc3s2)c1O` the amylase activity was 74.8 mOD/min and 47.1 mOD/min and 159 mOD/min and 126 mOD/min and 183 mOD/min (mouse, cerulein-induced acute pancreatitis, serum; 25 mg/kg).
`CCN(O)N=Nc1ccc(S(=O)(=O)Nc2onc(C)c2C)cc1` — result for “paw edema volume”: 5.73 ± 1.02 a.u. (carrageenan-induced paw edema; Wistar rat; oral, 100 mg/kg, 1 h after carrageenan, with: carrageenan 1% subplantar; higher = more edema).
`OC(CCN1CCCCC1)(c1ccccc1)C1CC2C=CC1C2` (centres unmarked) — result for “EEG Alpha1-power Fz-Cz”: 4 µV² (resting-state EEG; healthy elderly humans; oral, 4 mg, eyes closed, LS mean).
`CC(C)NCC(O)c1ccc(O)c(O)c1` (centres unmarked) has a sarcomere length of 1.55 µm (ventricular cardiomyocytes, C57BL/6 mouse; dose not given, 0.156 s).
For `COc1cc(C(=O)NS(=O)(=O)c2ccccc2C)ccc1Cc1cn(C)c2ccc(NC(=O)OC3CCCC3)cc12`, the inhibition was 5% (P-selectin exposure, flow cytometry, refers to: P-selectin; human platelet-rich plasma; 10 µM, with: CRP 5 µg/mL).
`OCC(O)CO` — result for “hexose phosphate concentration”: 0.381 mM and 0.874 mM and 0.573 mM and 0.519 mM and 0.363 mM (targeted LC-MS; male Slc25a13-/- Gpd2-/- mice, liver; drinking water, 5% w/v, 2 days).
`CCCN(O)N=Nc1ccc(S(=O)(=O)Nc2cc(C)on2)cc1`: “paw edema volume” 5.35 ± 0.51 a.u. (carrageenan-induced paw edema; Wistar rat; oral, 100 mg/kg, 2 h after carrageenan, with: carrageenan 1% subplantar; higher = more edema).
`CCCCC1(CCCC)CN(c2ccccc2)c2cc(SC)c(OCC(=O)N[C@@H](C(=O)NCC(=O)O)c3ccccc3)cc2S(=O)(=O)C1` has a plasma C4 of 64.8 ng/mL (refers to: 7α-hydroxy-4-cholesten-3-one; human, plasma; 5 mg once daily, day 8).
`O=C1c2ccncc2C(=O)c2c1[nH]c1ccccc21` — result for “RV free wall thickness”: “decreased” (female monocrotaline PAH rat; dose not given; relative to: vehicle).
For `Cc1ccc(N(O)N=Nc2ccc(S(=O)(=O)Nc3cc(C)on3)cc2)cc1`, “paw edema volume” read 4.11 ± 1.12 a.u. (carrageenan-induced paw edema; Wistar rat; oral, 100 mg/kg, 4 h after carrageenan, with: carrageenan 1% subplantar; higher = more edema).
For `COc1cc2cc(-c3ccc(CC(=O)Nc4cc(C(C)(C)C(F)(F)F)no4)cn3)cnc2cc1OC`, “stable disease as best response” read 100% (RECIST v1.1; RET-altered advanced solid tumour patients; oral, 10 mg once daily, phase I).
`COc1cc(-c2ccccc2)ncc1C(=O)Nc1ccc2c(=O)[nH]c(-c3ccc(C(C)(C)O)cc3)nc2c1` — result for “normalized enrichment score”: -1.49 (RNA-seq GSEA, refers to: HALLMARK_NOTCH_SIGNALING; organoids, small intestinal, Apc Q1405X, mouse; dose not given, knockout organoids; relative to: DMSO, direction not given).
`Cc1cccc(N(O)N=Nc2ccc(S(=O)(=O)Nc3nccs3)cc2)c1`: “paw edema volume” 5.23 ± 0.36 a.u. (carrageenan-induced paw edema; Wistar rat; oral, 100 mg/kg, 3 h after carrageenan, with: carrageenan 1% subplantar; higher = more edema).
`COc1nc(NCc2cn(-c3ccc(C(=O)Nc4ccc(Cl)cc4)cc3)nn2)nc(OC)n1` gave an IC50 of 105.8 ± 0.22 nM (cell viability, MTT; normal colonocytes, rat; 72 h).
`Cc1noc(NS(=O)(=O)c2ccc(N=NN(C)O)cc2)c1C`: “paw edema volume” 4.42 ± 0.83 a.u. (carrageenan-induced paw edema; Wistar rat; oral, 100 mg/kg, 4 h after carrageenan, with: carrageenan 1% subplantar; higher = more edema).
`C[C@@H](NC(=O)N1C(=O)[C@H](Cc2ccnc(N)c2)[C@H]1C(=O)O)C1CCCCC1` has an ACT AUEC of 17300 h·s (human; iv infusion, 1.0 mg/kg/h, 24 h).
`COc1ncnn2ccc(-c3cnc4nc(C)n(Cc5nnc([C@@H](C)F)o5)c4c3)c12`: “marrow complete response as best response” 0% (Homo sapiens, relapsed or refractory AML or MDS; dose not given, splicing factor mutation-positive).
`c1ccc(-c2n[nH]cc2-c2ccnc3ccccc23)nc1`: “log2 fold change” 1.66 (kinase binding, competitor, MIB/MS competition, refers to: HRK1; Candida albicans cell lysate; 10 µM; relative to: DMSO).
The maximum inhibition of `Cc1noc(C)c1-c1cc(C(O)(c2ccccn2)c2ccccn2)c2nc(C3CC3)[nH]c2c1` is reported as 32.1% (refers to: CCR2 expression; human, peripheral blood; 3 mg, day 1, 1599 study).
`Cc1cc(NS(=O)(=O)c2ccc(N=NN(O)c3ccccc3)cc2)no1`: “paw edema volume” 6.09 ± 0.74 a.u. (carrageenan-induced paw edema; Wistar rat; oral, 100 mg/kg, 1 h after carrageenan, with: carrageenan 1% subplantar; higher = more edema).
For `COc1ccccc1[C@H](Cn1c(=O)n(C(C)(C)C(=O)O)c(=O)c2c(C)c(-c3ncco3)sc21)OC1CCOCC1`, “serum total cholesterol” read 176 ± 51.4 mg/dL (human; 50 mg, post-treatment).
The mRNA level of `COc1cc(/C=C/C(=O)N2CCC=CC2=O)cc(OC)c1OC` is reported as 0.952 (qRT-PCR, refers to: Glut1; nude mouse MDA-MB-468 xenograft, tumour; 15 mg/kg, 21 days, normalised to beta-actin, unit not given; relative to: vehicle).
Under “percent change from baseline”, `C[C@H]1C[C@H]2CSC(N)=N[C@@]2(c2nc(NC(=O)c3ccc(OC(F)F)cn3)cs2)CO1` is recorded as -58.7% (refers to: Aβ1-40; healthy adults, plasma; 5 mg once daily, day 14; relative to: placebo).
With `O=C(O)CNC(=O)Cc1ccccc1` the sarcomere length was 1.72 µm (ventricular cardiomyocytes, C57BL/6 mouse; dose not given, 0.092 s).
`CC1(C)CCC(c2ccc(Cl)cc2)=C(CN2CCN(c3ccc(C(=O)NS(=O)(=O)c4ccc(N[C@H](CCN5CCOCC5)CSc5ccccc5)c(S(=O)(=O)C(F)(F)F)c4)cc3)CC2)C1` has an EC50 of 677 nM (cell killing, flow cytometry PI exclusion; canine blood CD21+ B cells, dog 31; 24 h).
`CC(=O)Oc1cc2c(s1)CCN(C(C(=O)C1CC1)c1ccccc1F)C2` (centres unmarked): “patients with high residual reactivity” 100% (platelet aggregation, light transmission aggregometry; human patients, platelet-rich plasma; dose not given, 15 min, aggregation above 46%, with: ADP 5 µM).
The k4 of `O=C(OC(C(F)(F)F)C(F)(F)F)N1CCN(Cc2cccc(Oc3ccccc3)c2)CC1` is reported as 0.143 min⁻¹ (PET blocking study; rhesus monkey, brain Pons; 0.1 mg/kg, compound pretreatment, with: [18F]T-401 tracer).
`COc1c(C)cnc(Cn2cc(C#CCCOP(=O)(O)O)c3c(Cl)nc(N)nc32)c1C`: “Hsp70 level increase” 300% (human patients, PBMCs; 48 mg/m^2; relative to: baseline).

A few entries again:
For `Cc1ccc(NC(=O)c2ccnc(C(F)(F)F)c2)cc1-c1cc(OCCO)nc(N2CCOCC2)c1`, the complete response was 0% (MAPK-altered advanced solid tumour patients; dose not given, single-agent dose escalation).
`CCCN(O)N=Nc1ccc(S(=O)(=O)Nc2onc(C)c2C)cc1`: “paw edema volume” 5.15 ± 0.41 a.u. (carrageenan-induced paw edema; Wistar rat; oral, 100 mg/kg, 3 h after carrageenan, with: carrageenan 1% subplantar; higher = more edema).
With `Cc1nn(-c2nc3c(F)cc(F)cc3s2)c(O)c1C(c1ccc(C(F)(F)F)cc1)c1c(C)nn(-c2nc3c(F)cc(F)cc3s2)c1O` the amylase activity was 74.8 mOD/min and 47.1 mOD/min and 159 mOD/min and 126 mOD/min and 183 mOD/min (mouse, cerulein-induced acute pancreatitis, serum; 25 mg/kg).
`CCN(O)N=Nc1ccc(S(=O)(=O)Nc2onc(C)c2C)cc1` — result for “paw edema volume”: 5.73 ± 1.02 a.u. (carrageenan-induced paw edema; Wistar rat; oral, 100 mg/kg, 1 h after carrageenan, with: carrageenan 1% subplantar; higher = more edema).
